Experimental data from different studies.
Each line is one published result; not all experiments were run side by side. Several values in a cell are separate wells, animals, samples, runs or records.
Replicase polyprotein 1ab main protease: Replicase polyprotein 1ab, main protease (Feline coronavirus, UniProt Q98VG9)
OSBP: Oxysterol-binding protein 1 (OSBP, Homo sapiens, UniProt P22059)
Chain of UniProt P22059 (whole entry, looked up): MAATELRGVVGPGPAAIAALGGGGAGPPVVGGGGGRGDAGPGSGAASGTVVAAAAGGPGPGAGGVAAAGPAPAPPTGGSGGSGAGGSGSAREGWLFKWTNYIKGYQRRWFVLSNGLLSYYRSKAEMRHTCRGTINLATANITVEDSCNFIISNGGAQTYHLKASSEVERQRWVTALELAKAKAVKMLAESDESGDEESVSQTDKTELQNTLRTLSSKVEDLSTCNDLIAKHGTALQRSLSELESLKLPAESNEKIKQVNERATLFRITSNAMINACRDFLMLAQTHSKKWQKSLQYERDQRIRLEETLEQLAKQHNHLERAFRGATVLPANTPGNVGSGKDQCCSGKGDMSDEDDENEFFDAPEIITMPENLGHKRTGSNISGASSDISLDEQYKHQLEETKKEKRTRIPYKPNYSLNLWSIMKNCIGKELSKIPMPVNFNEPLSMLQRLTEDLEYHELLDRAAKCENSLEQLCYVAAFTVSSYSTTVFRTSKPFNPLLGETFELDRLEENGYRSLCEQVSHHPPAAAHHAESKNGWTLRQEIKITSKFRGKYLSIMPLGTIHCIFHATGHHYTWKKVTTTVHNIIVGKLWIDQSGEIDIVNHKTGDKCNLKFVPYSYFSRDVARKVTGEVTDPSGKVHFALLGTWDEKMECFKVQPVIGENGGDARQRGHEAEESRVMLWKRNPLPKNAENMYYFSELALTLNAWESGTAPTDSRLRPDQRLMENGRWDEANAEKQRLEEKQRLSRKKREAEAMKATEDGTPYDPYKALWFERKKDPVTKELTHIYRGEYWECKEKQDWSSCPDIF
HDAC8: Histone deacetylase 8 (HDAC8, Homo sapiens, UniProt Q9BY41)
Chain of UniProt Q9BY41 (whole entry, looked up): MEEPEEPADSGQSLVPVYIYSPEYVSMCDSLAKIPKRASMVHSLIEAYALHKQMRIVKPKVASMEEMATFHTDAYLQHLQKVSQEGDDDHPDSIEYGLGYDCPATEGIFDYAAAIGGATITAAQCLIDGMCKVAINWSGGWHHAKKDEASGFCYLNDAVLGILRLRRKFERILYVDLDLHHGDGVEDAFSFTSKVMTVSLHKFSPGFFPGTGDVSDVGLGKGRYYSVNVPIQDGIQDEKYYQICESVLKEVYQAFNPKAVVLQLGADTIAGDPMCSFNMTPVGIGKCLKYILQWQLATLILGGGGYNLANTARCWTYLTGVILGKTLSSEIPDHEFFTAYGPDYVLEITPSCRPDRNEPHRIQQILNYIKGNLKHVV
ADRA2C: Alpha-2C adrenergic receptor (ADRA2C, Homo sapiens, UniProt P18825)
Chain of UniProt P18825 (whole entry, looked up): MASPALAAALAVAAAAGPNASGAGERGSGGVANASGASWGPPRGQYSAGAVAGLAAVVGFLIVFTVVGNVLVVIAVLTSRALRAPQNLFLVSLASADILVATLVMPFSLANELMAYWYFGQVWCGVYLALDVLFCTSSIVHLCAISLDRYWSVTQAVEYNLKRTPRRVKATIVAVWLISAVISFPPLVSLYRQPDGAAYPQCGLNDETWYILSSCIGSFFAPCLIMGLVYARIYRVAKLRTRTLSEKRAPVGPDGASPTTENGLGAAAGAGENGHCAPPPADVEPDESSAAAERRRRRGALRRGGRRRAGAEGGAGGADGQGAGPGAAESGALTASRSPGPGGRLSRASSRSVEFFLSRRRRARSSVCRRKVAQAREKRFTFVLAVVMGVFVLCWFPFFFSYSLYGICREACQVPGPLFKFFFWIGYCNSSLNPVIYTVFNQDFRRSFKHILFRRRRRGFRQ
HTR2C: 5-hydroxytryptamine receptor 2C (HTR2C, Homo sapiens, UniProt P28335)
Chain of UniProt P28335 (whole entry, looked up): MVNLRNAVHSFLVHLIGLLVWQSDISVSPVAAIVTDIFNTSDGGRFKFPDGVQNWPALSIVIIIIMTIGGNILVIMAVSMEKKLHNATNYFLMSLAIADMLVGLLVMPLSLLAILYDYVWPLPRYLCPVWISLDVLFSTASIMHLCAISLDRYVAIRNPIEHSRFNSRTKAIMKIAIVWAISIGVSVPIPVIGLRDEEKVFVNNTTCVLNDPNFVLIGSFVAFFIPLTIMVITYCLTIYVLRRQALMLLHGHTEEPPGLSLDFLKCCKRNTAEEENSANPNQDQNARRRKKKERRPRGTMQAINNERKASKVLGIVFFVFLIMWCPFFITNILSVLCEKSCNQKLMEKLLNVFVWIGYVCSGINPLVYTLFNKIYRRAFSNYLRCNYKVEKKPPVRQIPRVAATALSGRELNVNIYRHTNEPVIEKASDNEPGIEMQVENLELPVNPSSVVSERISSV
HDAC6: Protein deacetylase HDAC6 (HDAC6, Homo sapiens, UniProt Q9UBN7)
Chain of UniProt Q5BJF2 (whole entry, looked up): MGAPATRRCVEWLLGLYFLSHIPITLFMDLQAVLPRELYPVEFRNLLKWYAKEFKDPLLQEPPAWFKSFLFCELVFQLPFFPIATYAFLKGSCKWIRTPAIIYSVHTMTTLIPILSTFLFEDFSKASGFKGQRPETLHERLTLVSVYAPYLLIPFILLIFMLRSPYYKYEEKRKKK
Chain of UniProt Q9UBN7 (whole entry, looked up): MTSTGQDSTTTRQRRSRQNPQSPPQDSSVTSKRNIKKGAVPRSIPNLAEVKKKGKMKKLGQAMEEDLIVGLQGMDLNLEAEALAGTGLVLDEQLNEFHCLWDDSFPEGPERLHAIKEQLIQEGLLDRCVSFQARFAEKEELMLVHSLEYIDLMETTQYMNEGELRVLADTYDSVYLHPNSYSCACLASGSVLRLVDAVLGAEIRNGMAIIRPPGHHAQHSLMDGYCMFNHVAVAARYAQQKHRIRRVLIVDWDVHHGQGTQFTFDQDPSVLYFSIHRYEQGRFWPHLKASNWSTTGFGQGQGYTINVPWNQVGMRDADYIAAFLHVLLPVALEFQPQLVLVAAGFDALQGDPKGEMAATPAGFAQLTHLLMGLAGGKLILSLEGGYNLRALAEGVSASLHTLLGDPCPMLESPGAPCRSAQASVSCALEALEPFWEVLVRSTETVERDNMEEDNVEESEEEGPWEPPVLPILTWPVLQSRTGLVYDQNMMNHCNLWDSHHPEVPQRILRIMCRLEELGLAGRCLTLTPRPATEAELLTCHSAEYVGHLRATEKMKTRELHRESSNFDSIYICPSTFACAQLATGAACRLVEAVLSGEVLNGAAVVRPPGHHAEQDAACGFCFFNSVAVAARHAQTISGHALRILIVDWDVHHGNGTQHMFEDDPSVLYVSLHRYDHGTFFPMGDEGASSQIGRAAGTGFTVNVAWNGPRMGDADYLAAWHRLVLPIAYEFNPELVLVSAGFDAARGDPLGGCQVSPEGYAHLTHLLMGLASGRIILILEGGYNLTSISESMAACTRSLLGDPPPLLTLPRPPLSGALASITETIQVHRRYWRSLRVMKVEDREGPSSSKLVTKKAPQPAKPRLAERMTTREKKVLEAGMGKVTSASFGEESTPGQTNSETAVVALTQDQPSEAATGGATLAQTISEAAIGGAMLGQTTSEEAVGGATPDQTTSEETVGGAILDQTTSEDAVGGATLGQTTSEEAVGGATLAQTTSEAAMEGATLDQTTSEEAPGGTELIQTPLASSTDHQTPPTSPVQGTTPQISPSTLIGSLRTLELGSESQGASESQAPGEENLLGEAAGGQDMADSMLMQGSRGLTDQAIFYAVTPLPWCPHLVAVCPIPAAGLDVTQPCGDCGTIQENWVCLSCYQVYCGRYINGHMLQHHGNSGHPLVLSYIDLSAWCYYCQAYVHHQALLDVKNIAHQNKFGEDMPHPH
Chain of UniProt P18089 (whole entry, looked up): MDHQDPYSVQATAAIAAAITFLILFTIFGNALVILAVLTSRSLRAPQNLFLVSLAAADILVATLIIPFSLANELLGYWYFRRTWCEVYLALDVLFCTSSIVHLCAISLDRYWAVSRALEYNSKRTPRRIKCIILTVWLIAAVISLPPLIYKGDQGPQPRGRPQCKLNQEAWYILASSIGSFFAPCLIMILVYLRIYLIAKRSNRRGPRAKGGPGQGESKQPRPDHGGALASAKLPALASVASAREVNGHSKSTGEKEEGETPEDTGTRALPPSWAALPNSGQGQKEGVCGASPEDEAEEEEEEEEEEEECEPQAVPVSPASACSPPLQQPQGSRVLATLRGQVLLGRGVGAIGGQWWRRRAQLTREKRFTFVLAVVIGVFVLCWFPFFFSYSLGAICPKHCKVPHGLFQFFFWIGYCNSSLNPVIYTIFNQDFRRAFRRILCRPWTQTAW
Chain of UniProt Q13547 (whole entry, looked up): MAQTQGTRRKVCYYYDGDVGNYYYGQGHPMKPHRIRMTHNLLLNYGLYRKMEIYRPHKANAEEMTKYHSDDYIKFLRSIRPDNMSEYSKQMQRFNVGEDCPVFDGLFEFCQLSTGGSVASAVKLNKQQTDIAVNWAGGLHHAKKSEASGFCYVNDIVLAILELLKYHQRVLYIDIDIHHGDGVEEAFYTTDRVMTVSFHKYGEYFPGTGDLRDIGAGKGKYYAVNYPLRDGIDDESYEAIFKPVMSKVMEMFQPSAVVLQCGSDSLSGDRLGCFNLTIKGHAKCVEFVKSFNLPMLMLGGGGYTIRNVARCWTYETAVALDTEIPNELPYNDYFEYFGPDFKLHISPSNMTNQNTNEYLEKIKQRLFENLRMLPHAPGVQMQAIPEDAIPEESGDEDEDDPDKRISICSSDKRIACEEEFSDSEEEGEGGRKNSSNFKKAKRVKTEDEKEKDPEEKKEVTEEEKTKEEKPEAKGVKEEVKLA
Chain of UniProt P35348 (whole entry, unmodified, looked up): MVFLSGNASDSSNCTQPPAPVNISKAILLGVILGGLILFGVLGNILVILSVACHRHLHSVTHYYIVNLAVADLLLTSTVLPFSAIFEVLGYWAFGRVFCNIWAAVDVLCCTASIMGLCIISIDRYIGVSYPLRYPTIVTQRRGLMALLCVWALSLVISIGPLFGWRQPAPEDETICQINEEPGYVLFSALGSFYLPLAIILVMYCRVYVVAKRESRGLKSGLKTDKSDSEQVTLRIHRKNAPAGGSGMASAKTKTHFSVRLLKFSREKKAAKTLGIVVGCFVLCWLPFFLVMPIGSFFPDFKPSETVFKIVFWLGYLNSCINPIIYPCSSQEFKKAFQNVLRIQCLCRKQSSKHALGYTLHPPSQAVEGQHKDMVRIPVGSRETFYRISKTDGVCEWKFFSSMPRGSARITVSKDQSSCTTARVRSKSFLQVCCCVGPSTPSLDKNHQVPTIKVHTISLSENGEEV

Structure (SMILES)	target	test	setting	measurement	value
Cc1ccc(S(=O)(=O)N/N=C\C=C\c2ccccc2)cc1	Replicase polyprotein 1ab main protease	enzyme activity, inhibitor, fluorescence	–	Ki	48.8 µM
COc1cccc(C(=O)CC(SCc2ccc(Cl)cc2)C(=O)O)c1 (stereo not shown)	OSBP	ligand displacement, FP	–	Ki	100 µM
CC(C)c1ccc(OS(=O)(=O)Oc2cccc(C(=O)NO)c2)cc1	HDAC8	enzyme activity, inhibitor, fluorescence	–	Ki	0.829 µM
Cc1cc(Oc2ncccc2CN2CCN(Cc3ccccc3Cl)CC2)ccc1-c1c(C)c(=O)[nH]c(=O)n1C	ADRA2C	ligand displacement, radioligand	–	Ki	0.0254 µM
CCOc1ccc(C(=O)CC(SCc2ccccc2Br)C(=O)O)cc1 (stereo not shown)	OSBP	ligand displacement, FP	–	Ki	185 µM
COc1cc(-c2cncc3c2CN(C)Cc2cc(N4CCNCC4)ccc2-3)cc(OC)c1OC	CHEK2 (Homo sapiens, UniProt O96017, R145W)	enzyme activity, inhibitor	1 µM	remaining activity	102%
Cc1ccc2[nH]c(=O)c(CNC3CCCCC3)cc2c1	ADRA1A (Homo sapiens, UniProt P35348, I178V)	ligand displacement in cells, flow cytometry	–	Ki	0.513 µM
Cc1cc(Oc2ncccc2CN2CCN(c3cccc(C)c3C)CC2)ccc1-c1c(C)c(=O)[nH]c(=O)n1C	ADRA2C	ligand displacement, radioligand	–	Ki	0.0061 µM and 0.006 µM
OC[C@@]12C[C@@H]1[C@@H](n1cnc3c(NC(C4CCCC4)C4CCCC4)nc(Cl)cc31)[C@H](O)[C@@H]2O	HTR2C	ligand displacement, radioligand	–	Ki	1.27 µM
Cc1cc(Oc2ncccc2CN2CCN(c3ccccc3C)CC2)ccc1-c1c(C)c(=O)[nH]c(=O)n1C	ADRA2C	ligand displacement, radioligand	–	Ki	0.0104 µM and ~0.011 µM
O=c1cc(-c2ccc(O)c(O)c2)oc2cc(O[C@@H]3O[C@H](CO)[C@@H](O)[C@H](O)[C@H]3O)cc(O)c12	LDHA (Homo sapiens, UniProt P00338)	enzyme activity, inhibitor	–	Ki	68 µM
CNc1ncc2c(/C=C/C(=O)N3CCC(OC)CC3)nn(Cc3cccc(C(F)(F)F)c3)c2n1	Cyclin-dependent kinase 2, with cyclin D1 (CDK2, Homo sapiens, UniProt P24941)	enzyme activity, inhibitor, radiometric	1 µM	remaining activity	98%
COc1ccc(Cl)cc1N1CCN(Cc2cccnc2Oc2ccc(-c3c(C)c(=O)[nH]c(=O)n3C)c(C)c2)CC1	ADRA2C	ligand displacement, radioligand	–	Ki	0.0553 µM
O=C(NO)c1cncc(OS(=O)(=O)Oc2ccc(C(F)(F)F)cc2)c1	HDAC1 (Homo sapiens, UniProt Q13547)	enzyme activity, inhibitor, fluorescence	–	Ki	0.621 µM
C#CCN(CCCN1CCN(C2CCCCC2)CC1)CC(=O)Nc1ccc(C(=O)c2ccccc2)cc1	TMEM97 (Homo sapiens, UniProt Q5BJF2)	ligand displacement, radioligand	cell membranes	Ki	0.002 µM and < 0.005 µM and 0.00211 µM
CCOc1ccccc1C(=O)CC(SCc1ccc(Cl)cc1)C(=O)O (stereo not shown)	OSBP	ligand displacement, FP	–	Ki	135 µM
Cc1cc(OS(=O)(=O)Oc2ccccc2)cc(C(=O)NO)c1	HDAC8	enzyme activity, inhibitor, fluorescence	–	Ki	3.99 µM
O=C1CCc2ccccc2O1	CA1 (Homo sapiens, UniProt P00915)	enzyme activity, inhibitor, stopped-flow	–	Ki	40.4 µM
CCOc1ccc(C(=O)CC(SCc2ccc(OC)cc2)C(=O)O)cc1 (stereo not shown)	PLCD1 (Homo sapiens, UniProt P51178)	ligand displacement, FP	–	Ki	> 1000 µM

Structure (SMILES)	target	test	setting	measurement	value
O=C(NO)c1cccc(OS(=O)(=O)Oc2ccc3ccccc3c2)c1	HDAC8	enzyme activity, inhibitor, fluorescence	–	Ki	0.055 µM
CCOC(=O)c1cc(-c2ccc(OCC)cc2)oc1-c1ccc(Cl)cc1	OSBP	ligand displacement, FP	–	Ki	> 100 µM
Cc1cc(Oc2ncccc2CN2CCN(CCc3ccccc3)CC2)ccc1-c1c(C)c(=O)[nH]c(=O)n1C	ADRA2C	ligand displacement, radioligand	–	Ki	0.151 µM
Cc1cc(C(C)(C)C)ccc1OS(=O)(=O)Oc1cc(F)cc(C(=O)NO)c1	HDAC8	enzyme activity, inhibitor, fluorescence	–	Ki	6.75 µM
CNc1nc(C#Cc2ccc(Cl)s2)nc2c1ncn2[C@H]1[C@H](O)[C@H](O)[C@]2(C(=O)OC(C)C)C[C@H]12	Tspo (Rattus norvegicus, UniProt P16257)	ligand displacement, radioligand	–	Ki	> 10 µM
C=CC(=O)N1CCC(COCC(=O)N2CCN(c3nc(-c4cnc(N)nc4C(F)F)nc(N4CCOC[C@@H]4C)n3)CC2)CC1	STK16 (Homo sapiens, UniProt O75716)	binding, competition with immobilised ligand	1 µM	remaining binding	100%
COc1cc(O)c2c(=O)cc(-c3ccc(O)c(O)c3)oc2c1	Replicase polyprotein 1ab main protease	enzyme activity, inhibitor, fluorescence	–	Ki	16.7 µM
CNC(=O)[C@@]12C[C@@H]1[C@@H](n1cnc3c(NCc4cccc(Cl)c4)nc(C#Cc4ccccc4Cl)nc31)[C@H](O)[C@@H]2O	OPRD1 (Homo sapiens, UniProt P41143)	ligand displacement, radioligand	–	Ki	> 10 µM
OC[C@@]12C[C@@H]1[C@@H](n1cnc3c(NCCCCCCc4ccccc4)nc(I)nc31)[C@H](O)[C@@H]2O	SLC6A4 (Homo sapiens, UniProt P31645)	ligand displacement, radioligand	–	Ki	2.5 µM
COc1ccccc1C(=O)CC(SCc1ccc(Cl)cc1)C(=O)O (stereo not shown)	OSBP	ligand displacement, FP	–	Ki	330 µM
Cc1cc(Oc2ncccc2CN2CCN(c3cccc(F)c3)CC2)ccc1-c1c(C)c(=O)[nH]c(=O)n1C	ADRA2B (Homo sapiens, UniProt P18089)	ligand displacement, radioligand	–	Ki	0.0607 µM
O=C(/C=C/c1cccc(OS(=O)(=O)Oc2ccccc2)c1)NO	HDAC6	enzyme activity, inhibitor, fluorescence	–	Ki	0.273 µM
Cc1cc(Oc2ncccc2CN2CCN(c3ccccc3Br)CC2)ccc1-c1c(C)c(=O)[nH]c(=O)n1C	ADRA2C	ligand displacement, radioligand	–	Ki	0.0195 µM
N#C[C@@]12C[C@@H]1[C@@H](n1cnc3c(N[C@H](C4CCC4)C4CC4)nc(I)nc31)[C@H](O)[C@@H]2O	HTR2C	ligand displacement, radioligand	–	Ki	0.085 µM
CC(C)c1cccc(OS(=O)(=O)Oc2cc(F)cc(C(=O)NO)c2)c1	HDAC8	enzyme activity, inhibitor, fluorescence	–	Ki	2.32 µM
CCOc1ccc(-c2cc(C(=O)O)c(-c3ccc(Cl)cc3)o2)cc1	AKT1 (Homo sapiens, UniProt P31749)	ligand displacement, FP	–	Ki	6.6 µM
O=C(NO)c1cccc(OS(=O)(=O)Oc2ccc(-c3cccc(C(F)(F)F)c3)cc2)c1	HDAC6	enzyme activity, inhibitor, fluorescence	–	Ki	1.38 µM
Cc1cc(Oc2ncccc2CN2CCN(c3ccc(C(F)(F)F)cn3)CC2)ccc1-c1c(C)c(=O)[nH]c(=O)n1C	ADRA2C	ligand displacement, radioligand	–	Ki	0.277 µM
